Measurements collected from several papers.
Each numbered part is a random draw from the data of one study; scales do not carry over between parts.
Sequence of UniProt Q5BJF2 (whole entry, looked up): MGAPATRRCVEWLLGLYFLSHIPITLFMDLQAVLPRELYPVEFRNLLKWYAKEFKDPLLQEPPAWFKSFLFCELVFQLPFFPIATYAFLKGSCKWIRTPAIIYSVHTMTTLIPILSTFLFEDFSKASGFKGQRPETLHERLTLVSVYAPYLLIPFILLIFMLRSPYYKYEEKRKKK

Block 1
Target: Sal-like protein 4, full length isoform A (SALL4, Homo sapiens, UniProt Q9UJQ4, residues 1-1053)
Sequence of UniProt Q9UJQ4 (whole entry, looked up): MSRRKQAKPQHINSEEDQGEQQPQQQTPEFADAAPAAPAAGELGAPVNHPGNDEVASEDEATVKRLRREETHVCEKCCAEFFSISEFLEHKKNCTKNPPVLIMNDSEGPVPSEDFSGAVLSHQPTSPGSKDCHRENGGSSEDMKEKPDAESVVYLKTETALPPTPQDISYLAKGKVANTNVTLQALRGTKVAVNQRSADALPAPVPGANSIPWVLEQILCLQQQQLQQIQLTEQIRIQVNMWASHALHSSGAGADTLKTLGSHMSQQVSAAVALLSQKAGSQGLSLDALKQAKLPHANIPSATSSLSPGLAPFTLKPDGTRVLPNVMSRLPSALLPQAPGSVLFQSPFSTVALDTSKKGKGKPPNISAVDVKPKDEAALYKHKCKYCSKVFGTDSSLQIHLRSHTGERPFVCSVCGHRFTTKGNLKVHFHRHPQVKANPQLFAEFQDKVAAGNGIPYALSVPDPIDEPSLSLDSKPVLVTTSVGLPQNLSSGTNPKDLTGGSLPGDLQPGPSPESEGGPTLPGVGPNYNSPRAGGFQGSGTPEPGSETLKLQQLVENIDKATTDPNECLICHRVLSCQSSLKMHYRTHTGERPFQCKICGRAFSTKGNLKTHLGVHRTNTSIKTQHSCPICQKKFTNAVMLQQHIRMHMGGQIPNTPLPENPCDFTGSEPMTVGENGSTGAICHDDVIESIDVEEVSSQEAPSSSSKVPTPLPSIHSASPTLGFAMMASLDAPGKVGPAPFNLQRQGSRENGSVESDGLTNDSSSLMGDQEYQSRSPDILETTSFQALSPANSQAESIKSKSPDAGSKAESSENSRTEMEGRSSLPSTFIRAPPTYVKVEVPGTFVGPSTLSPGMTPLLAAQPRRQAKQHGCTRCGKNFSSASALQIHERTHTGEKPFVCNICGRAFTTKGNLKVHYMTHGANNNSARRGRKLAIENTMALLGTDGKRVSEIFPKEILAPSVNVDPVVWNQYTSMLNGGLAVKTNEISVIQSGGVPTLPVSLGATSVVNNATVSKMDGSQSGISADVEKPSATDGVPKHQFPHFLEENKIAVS
Method: universal PBM
Form: double-stranded DNA, one strand shown
Medium: in vitro
Concentration: 600 nM
Notes: 8-mer, flanks averaged, mean of replicates
Reading: higher = stronger binding
Strand | E-score
AGCTGCAT | -0.0397
ATGGTTCC | -0.111
GAGGCGAC | -0.254
TAGGCTAA | -0.129
CCATTCAG | 0.117
CAAAGCCG | -0.094
GGGAGCCC | -0.431
ACTTGGTA | 0.18

Block 2
Target: Phosphate system positive regulatory protein PHO4, full length, GST-tagged (PHO4, Saccharomyces cerevisiae, UniProt P07270, residues 1-312)
Method: competition protein-binding microarray
Form: double-stranded DNA, one strand shown
Medium: in vitro
Concentration: 2 µM
Notes: whole 60-bp probe, lowest competitor level
Added: Cbf1 competitor, 0.05 µM
Reading: higher = stronger binding
All sequences stand within: … GTCTTGATTCGCTTGACGCTGCTG
Target sequence (chain): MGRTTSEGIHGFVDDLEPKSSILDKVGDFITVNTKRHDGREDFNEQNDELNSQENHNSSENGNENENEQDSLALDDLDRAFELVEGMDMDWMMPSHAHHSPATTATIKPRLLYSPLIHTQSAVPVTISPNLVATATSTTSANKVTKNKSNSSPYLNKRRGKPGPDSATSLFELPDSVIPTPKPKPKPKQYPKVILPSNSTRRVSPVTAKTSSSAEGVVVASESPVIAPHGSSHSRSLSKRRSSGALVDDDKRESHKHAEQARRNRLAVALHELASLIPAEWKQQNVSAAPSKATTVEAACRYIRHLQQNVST
Strand | fluorescence intensity [a.u.]
AAATTACTAAGTTGACCGGTGGGTGACGCCGTATGA | 3910
GTCTTGTCTCATTGTGGTGTGGGTGTCCCCACTTCA | 5940
CCATACGTTTACGTAGGCGTGCTTTTTTCAAAGAGT | 9400
CGTCCTAGTGATTGGTAAGTGGGTGCCATGAGGAAG | 7190
CATACCCAACCTTGCTGGGTGGGTGAAGATATTTGT | 4930
CTAACGAAGGTTTGTCACCGTACTTACAAGCCAAGT | 3120
AGCGACTAAGAAAGTCTTGTGACGGGATGGTGACAA | 3670
ATTTGACCATTATTCCACGTGTTGAGTTCTCAGAAT | 19200

Block 3
Target: Interferon regulatory factor 5, full length, phosphomimetic (IRF5, Homo sapiens, UniProt Q13568-2, residues 1-514, S451D/S453D/S456D/S462D)
Method: protein-binding microarray
Form: double-stranded DNA, one strand shown
Medium: in vitro
Concentration: 940 nM top
Notes: 60-bp whole probe
Added: salmon DNA 0.4 mg/ml
Relative to: random background probes
Reading: higher = stronger binding
All sequences stand within: GCCTAGCAC … GTCTTGATTCGCTTGACGCTGCTG
Strand | fitted relative affinity [z-score]
TTGGGACTGCTTCTCCTTTAGTGCTAG | -0.209
GACCTTTTTAAGATCTGTGCGTGCTAG | -0.0394
GACTGTATCGACTTTCGGGACGTGCTA | 1.92
TTAGAACTGGGCACTGGATTAGTGCTA | -0.834
TGAGTCTTCCCTTTTAAGTTGTGCTAG | 0.86
TTGGGTATCCTTATCCTTTAGTGCTAG | 0.301
TCAGCTATCACTATTCTACTGTGCTAG | 0.51
TTAGATATCGGGTTACGATTAGTGCTA | 0.457

Single results of other studies
SMILES | target | observed | method | concentration | endpoint | result
O[C@]1(C(F)(F)F)CCCC[C@H]1Nc1ccc(F)cc1 | Sigma intracellular receptor 2 (TMEM97, Homo sapiens, UniProt Q5BJF2) | binding | radioligand binding | 10 µM | inhibition | 8.95%
